Assay results gathered from unrelated publications.
Every numbered part comes from another study and shows a few of its results, in no order.
UniProt Q8NG66, sequence (whole entry, looked up): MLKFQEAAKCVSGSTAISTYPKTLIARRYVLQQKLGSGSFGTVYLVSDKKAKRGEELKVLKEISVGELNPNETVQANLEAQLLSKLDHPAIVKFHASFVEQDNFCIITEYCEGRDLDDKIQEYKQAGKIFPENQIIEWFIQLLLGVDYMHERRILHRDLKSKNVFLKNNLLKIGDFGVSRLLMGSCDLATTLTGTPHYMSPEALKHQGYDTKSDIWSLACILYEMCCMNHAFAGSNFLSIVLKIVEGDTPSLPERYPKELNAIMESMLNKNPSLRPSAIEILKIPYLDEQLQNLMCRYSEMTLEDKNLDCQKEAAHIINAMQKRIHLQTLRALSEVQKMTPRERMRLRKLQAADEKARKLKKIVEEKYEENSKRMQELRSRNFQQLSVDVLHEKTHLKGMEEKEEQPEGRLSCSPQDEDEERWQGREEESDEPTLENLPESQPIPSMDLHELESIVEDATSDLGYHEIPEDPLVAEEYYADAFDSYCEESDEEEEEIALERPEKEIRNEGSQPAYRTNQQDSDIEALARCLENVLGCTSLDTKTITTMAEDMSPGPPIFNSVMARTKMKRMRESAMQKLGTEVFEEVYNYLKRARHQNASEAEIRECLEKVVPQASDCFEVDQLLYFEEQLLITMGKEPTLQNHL

Series 1
Target: Histone acetyltransferase KAT6A, winged helix 1, GST fusion (KAT6A, Homo sapiens, UniProt Q92794, residues 1-85)
Method: protein binding microarray
Molecule type: double-stranded DNA, one strand shown
Sample: in vitro
Concentration: not given
Notes: 8-mer, flanks averaged, mean of 2 arrays, mostly near background
Baseline: not given
Direction: higher = stronger binding
Construct (chain): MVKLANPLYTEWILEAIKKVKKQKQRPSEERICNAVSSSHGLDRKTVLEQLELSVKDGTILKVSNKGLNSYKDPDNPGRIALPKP
Sequence	E-score
CCAAATTC	-0.25
ATCTATGC	-0.0671
TAGTCCGA	0.0218
CTCGGCTC	0.0926
AGAGTGGG	-0.0741
AAGGATTG	-0.203
GGGTTCCA	0.0435
ATAACTAC	-0.0124

Series 2
Target: Interferon regulatory factor 5, full length, phosphomimetic (IRF5, Homo sapiens, UniProt Q13568-2, residues 1-514, S451D/S453D/S456D/S462D)
Method: protein-binding microarray
Molecule type: double-stranded DNA, one strand shown
Sample: in vitro
Concentration: 940 nM top
Notes: 60-bp whole probe
With: salmon DNA 0.4 mg/ml
Baseline: random background probes
Direction: higher = stronger binding
All sequences stand within: GCCTAGCAC … GTCTTGATTCGCTTGACGCTGCTG
Sequence	fitted relative affinity
GATGGTTTCGGTATCGGGACGTGCTAG	14.7 z-score
AGGAATTTCCCACTTTCACTGTGCTAG	1.93 z-score
GACGTTATCAGTATCGAGACGTGCTAG	1.66 z-score
GACGGACTAGACTATCGGGACGTGCTA	-0.123 z-score
GACGATTCCAGGTTCGAGACGTGCTAG	0.148 z-score
TGAAGACTTTCTTTCAAATGGTGCTAG	0.362 z-score
TCATTTTTTAATTGAGAACTGTGCTAG	-0.225 z-score
GACGGTCTCGGTATCGGCACGTGCTAG	4.43 z-score

Series 3
Target: Prothrombin, mature alpha-thrombin (F2, Homo sapiens, UniProt P00734)
Method: aptamer microarray, sandwich
Molecule type: DNA with 2'F-ANA
Sample: in vitro
Concentration: 200 nM
Notes: whole 15-mer aptamer, many near background
With: Cy3 exosite-II aptamer, 400 nM
Direction: higher = stronger binding
Sequence: GGTTGGTGTGGTTGG
Modification	mean fluorescence intensity [a.u.]
2'F-ANA at 2 5 7 8 9 10 12 13 15	53.4
2'F-ANA at 1 2 4 5 7 9 10 13 14	46.3
2'F-ANA at 1 2 3 4 5 6 7 10 11 12 14 15	49
2'F-ANA at 1 2 4 5 7 10 13 14 15	46.5
2'F-ANA at 2 3 5 7 9 11 12 14	52.2
2'F-ANA at 5 6 9 12 15	139
2'F-ANA at 3 4 5 8 9 12 13 15	112
2'F-ANA at 1 6 7 8 12 13 15	353

Mixed results
Structure (SMILES)	target	test	setting	how to read	endpoint	result
O=C(Nc1cccc(Nc2nccc(Nc3cccc(C(F)(F)F)c3)n2)c1)C1CC1	Serine/threonine-protein kinase Nek11 (NEK11, Homo sapiens, UniProt Q8NG66)	enzyme activity, inhibitor	0.5 µM	baseline: control	remaining activity	102%
